Experimental data of several laboratories.
Numbered parts are unrelated; each lists some results of a single study. Substitutions count along the parent as printed.
Chain of UniProt Q05397 (whole entry, looked up): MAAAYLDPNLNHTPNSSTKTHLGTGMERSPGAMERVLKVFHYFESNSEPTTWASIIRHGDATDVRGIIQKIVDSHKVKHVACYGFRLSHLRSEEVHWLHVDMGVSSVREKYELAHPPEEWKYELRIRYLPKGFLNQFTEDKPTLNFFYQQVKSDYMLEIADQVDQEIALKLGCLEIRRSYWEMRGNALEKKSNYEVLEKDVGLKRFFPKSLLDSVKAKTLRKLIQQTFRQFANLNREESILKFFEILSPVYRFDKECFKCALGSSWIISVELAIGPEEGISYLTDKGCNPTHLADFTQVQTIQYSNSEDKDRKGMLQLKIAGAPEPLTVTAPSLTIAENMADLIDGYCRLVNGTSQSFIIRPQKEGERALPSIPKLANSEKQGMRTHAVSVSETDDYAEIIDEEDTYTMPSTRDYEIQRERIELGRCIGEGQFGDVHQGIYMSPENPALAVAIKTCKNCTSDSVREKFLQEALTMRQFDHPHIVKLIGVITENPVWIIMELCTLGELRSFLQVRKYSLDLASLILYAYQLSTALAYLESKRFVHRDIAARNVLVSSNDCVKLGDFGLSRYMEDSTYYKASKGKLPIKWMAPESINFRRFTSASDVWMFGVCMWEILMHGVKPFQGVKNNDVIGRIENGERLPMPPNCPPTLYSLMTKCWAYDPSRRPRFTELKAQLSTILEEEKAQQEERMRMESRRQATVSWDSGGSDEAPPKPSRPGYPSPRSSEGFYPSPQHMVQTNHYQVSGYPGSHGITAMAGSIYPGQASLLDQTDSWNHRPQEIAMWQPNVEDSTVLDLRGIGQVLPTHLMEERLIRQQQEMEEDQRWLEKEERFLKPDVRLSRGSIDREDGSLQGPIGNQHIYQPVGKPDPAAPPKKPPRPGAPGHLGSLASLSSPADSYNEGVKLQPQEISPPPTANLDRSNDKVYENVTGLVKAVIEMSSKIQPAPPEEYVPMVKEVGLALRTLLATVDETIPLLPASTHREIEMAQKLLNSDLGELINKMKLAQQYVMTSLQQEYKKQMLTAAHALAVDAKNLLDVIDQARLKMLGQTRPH

Study 1 — target: CCNF, cyclin fold, Cln2 fusion (human); method: yeast growth competition, sequencing; sample: yeast; notes: weak parent motif; reference: not given; direction: higher = stronger binding
Starting sequence: FZR1 docking peptide (human); QDYERRLLRQIVI; partner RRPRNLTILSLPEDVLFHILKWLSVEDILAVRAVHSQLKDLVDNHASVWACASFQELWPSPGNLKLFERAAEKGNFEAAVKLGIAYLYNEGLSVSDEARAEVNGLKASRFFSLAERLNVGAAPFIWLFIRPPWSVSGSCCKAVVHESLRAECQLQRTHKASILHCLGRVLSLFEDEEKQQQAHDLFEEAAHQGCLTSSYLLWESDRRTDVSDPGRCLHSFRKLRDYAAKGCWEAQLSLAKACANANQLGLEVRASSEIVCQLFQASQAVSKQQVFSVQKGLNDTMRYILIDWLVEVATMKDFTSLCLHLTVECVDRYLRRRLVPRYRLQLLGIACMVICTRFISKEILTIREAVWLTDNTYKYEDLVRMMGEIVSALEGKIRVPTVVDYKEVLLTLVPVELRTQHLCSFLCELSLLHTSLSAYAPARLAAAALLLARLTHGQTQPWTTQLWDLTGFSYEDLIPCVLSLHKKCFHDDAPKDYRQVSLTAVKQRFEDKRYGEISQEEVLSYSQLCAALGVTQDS
Change	normalised enrichment score
QDYERRLLRQIAI [V12A]	1.37
QDYEKRLFRQIVI [R5K L8F]	0.297
QDYERRLFRQIVI [L8F]	0.615
QDYERRLLAQIVI [R9A]	-0.364
QDYERRLARQIVI [L8A]	0.612
QAYERRLLRQIVI [D2A]	1.28
QDYERRLLRQIVA [I13A]	0.984
QDYERRALRQIVI [L7A]	1.03

Study 2 — method: RNA Bind-n-Seq; form: RNA; sample: in vitro; tested at: 200 nM; notes: whole 134-nt RNA, ends assumed; together with: 150 mM KCl; reference: input library; direction: higher = stronger binding
Target: Ras GTPase-activating protein-binding protein 1, full length (G3BP1, Homo sapiens, UniProt Q13283)
Chain of UniProt Q13283 (whole entry, looked up): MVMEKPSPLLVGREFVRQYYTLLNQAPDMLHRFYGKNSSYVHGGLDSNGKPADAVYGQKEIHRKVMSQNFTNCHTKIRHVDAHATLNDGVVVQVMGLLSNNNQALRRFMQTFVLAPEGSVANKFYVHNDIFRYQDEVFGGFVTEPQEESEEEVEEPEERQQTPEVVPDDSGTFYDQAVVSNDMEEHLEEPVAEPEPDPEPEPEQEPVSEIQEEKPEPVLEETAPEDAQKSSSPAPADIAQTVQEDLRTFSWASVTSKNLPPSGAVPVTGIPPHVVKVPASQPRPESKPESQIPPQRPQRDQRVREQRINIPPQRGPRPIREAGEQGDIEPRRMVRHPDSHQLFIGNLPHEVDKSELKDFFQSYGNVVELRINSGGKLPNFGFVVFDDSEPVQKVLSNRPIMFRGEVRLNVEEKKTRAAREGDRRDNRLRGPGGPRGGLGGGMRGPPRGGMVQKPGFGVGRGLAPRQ
Shared flanks, not repeated: GGGAGUUCUACAGUCCGACGAUC … UGGAAUUCUCGGGUGUCAAGG
Sequence	log2 enrichment
CCUGUGCUACACAUCGUAUGUACCGAAUCGGGAAAAAAAGGGAAAAAAAGGGAAAAAGGGAAAGUAUUAUGUUACGCCGUUCGGAUCUGC	-0.981
CCUGUGCUACACAUCGUAUGUACCGAAUCAAACCCCCAAAUUUUUUUAAACCCCCCCAAAAAAGUAUUAUGUUACGCCGUUCGGAUCUGC	0.284
CACAGACAACACGCACCCACACAGACACAGAGGGAAGGGGUUGGGAUGGGGACAGGGUGCACAUCAGGGCGGGGUAGGACCCCAGCCCCU	1.87
GCUGUGACCCCAACGCCGGUGCCCGUGGUCGGGAGCCAGAUGACCAGACAAGCCCGGCGCCUCUACGUGGGCAACAUCCCCUUUGGCAUC	-0.026
GUCCUGUGCUACACAUCGUAUGUACCGAAUCGGGGUUUUUGGGGAAAAAGGGGUGGGGAAAGUAUUAUGUUACGCCGUUCGGAUCUGCAC	0.437
CAAGUCCUGUGCUACACAUCGUAUGUACCGAAUCGGAAAGGGGAAAGGGGAAAGGGAAAGUAUUAUGUUACGCCGUUCGGAUCUGCACUU	0.0708
UAUUGAUGCAUUUGACCCUACACUGGCUCCAGCCACAGGAACUCCUGUUGUCGGGGGACUAACCUAUCGAGAAGGCAUGUAUAUUGCUGA	-0.618
UGUUGAUGCUGUAAUUGCUGAACUUAAAAAGCAGUCUAAACCUGUGACCACCCCUGAAGAAAUUGCACAGGUAAGGACUUAACAUGUUAC	1.03

Study 3 — target: JUN, bZIP domain (human); method: DHFR protein complementation; sample: yeast; reference: wild-type JUN-FOS pair; direction: higher = stronger binding
Notes: single substitutions, most at no-binding floor
Starting sequence: JUN, bZIP domain (human); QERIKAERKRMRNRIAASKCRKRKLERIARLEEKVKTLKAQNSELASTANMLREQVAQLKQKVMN; partner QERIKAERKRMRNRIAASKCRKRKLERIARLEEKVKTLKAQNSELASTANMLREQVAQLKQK
Change	binding fitness [natural log]
K34W	-0.195
S47C	-0.229
A46T	-0.0655
I28S	-1.06
Q55L	-0.465
E44S	-0.483
S43T	-0.109
Q58G	-0.357

Mixed results
SMILES	target	observed	method	tested at	endpoint	value
CCC(=O)N[C@@H]1CC[C@H](C(=O)N(C)c2ccc(-c3nc4ccccc4o3)cc2)C1	Focal adhesion kinase 1 (PTK2, Homo sapiens, UniProt Q05397)	cell-free assay	competition with immobilised ligand	1 µM	remaining binding	100%

A few entries again (study 1):
Change	normalised enrichment score
QAYERRLLRQIVI [D2A]	1.28
QDYERRLLRQIVA [I13A]	0.984
QDYERRALRQIVI [L7A]	1.03
QDYERRLLRQIAI [V12A]	1.37
